# Measurements pooled from the literature.
# Every numbered part comes from another study and shows a few of its results, in no order. Positions count from the first letter of the parent shown.

# Sample 1
# Target: Interferon regulatory factor 7, full length, phosphomimetic (IRF7, Homo sapiens, UniProt Q92985, residues 1-503, S471D/S472D/S475D/S476D/S477D/S483D/S484D/S487D)
# Method: protein-binding microarray
# Molecule type: double-stranded DNA, one strand shown
# Matrix: in vitro
# Concentration: 2200 nM top
# Notes: 60-bp whole probe
# Added: salmon DNA 0.4 mg/ml
# Reference: random background probes
# Reading: higher = stronger binding
# All sequences stand within: GCCTAGCAC … GTCTTGATTCGCTTGACGCTGCTG
# Target sequence (chain): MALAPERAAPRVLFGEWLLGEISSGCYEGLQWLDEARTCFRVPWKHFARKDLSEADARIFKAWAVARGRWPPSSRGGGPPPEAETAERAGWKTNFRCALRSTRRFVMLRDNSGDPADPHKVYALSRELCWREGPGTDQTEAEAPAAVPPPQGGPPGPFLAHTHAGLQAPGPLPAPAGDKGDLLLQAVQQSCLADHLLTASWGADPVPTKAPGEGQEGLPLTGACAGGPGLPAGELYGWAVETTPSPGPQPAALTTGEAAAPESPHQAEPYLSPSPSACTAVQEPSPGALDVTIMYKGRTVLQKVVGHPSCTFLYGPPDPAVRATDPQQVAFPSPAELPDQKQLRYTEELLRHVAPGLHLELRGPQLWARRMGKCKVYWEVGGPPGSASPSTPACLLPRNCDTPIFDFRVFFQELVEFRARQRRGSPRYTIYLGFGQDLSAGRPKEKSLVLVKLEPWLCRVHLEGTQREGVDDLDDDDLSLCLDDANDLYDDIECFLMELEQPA
Sequence,fitted relative affinity
GACGGTATTGGGTATCGGGACGTGCTA,-0.253 z-score
ATTCTCTTCTTGCATCTGGGTGTGCTA,2.5 z-score
TTAGATATCAGTATTGATTAGTGCTAG,-0.0269 z-score
TATTTTTTTTATTTATAAATGTGCTAG,1.05 z-score
TCAAATCTCTCATGTTACACTGTGCTA,0.717 z-score
GACGGACTGCTTTTCCTCACGTGCTAG,0.756 z-score

# Sample 2
# Target: Centromere-binding protein 1, full length, N-terminal tag (CBF1, Saccharomyces cerevisiae, UniProt P17106, residues 1-351)
# UniProt P17106, sequence (whole entry, looked up): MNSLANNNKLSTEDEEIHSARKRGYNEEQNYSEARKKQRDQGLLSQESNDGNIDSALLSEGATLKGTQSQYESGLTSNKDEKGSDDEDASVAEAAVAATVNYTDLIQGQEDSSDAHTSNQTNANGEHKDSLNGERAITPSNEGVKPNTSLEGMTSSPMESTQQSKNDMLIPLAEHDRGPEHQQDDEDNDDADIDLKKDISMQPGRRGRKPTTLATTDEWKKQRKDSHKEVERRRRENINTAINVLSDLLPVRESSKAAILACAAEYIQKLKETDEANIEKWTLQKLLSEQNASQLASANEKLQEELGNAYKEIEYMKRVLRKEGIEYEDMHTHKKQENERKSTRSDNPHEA
# Method: protein-binding microarray
# Molecule type: double-stranded DNA, one strand shown
# Matrix: in vitro
# Concentration: 0.8 µM
# Notes: whole 60-bp probe, no competitor
# Reading: higher = stronger binding
Sequence,fluorescence intensity [a.u.]
CTAGCATAATATTAATACGTGTCACTCTCACTATTCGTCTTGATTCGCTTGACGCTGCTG,578
CTACATTATGCACGTGACATTACAAATTGTGGTTTCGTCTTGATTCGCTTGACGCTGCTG,20000
GAACTTCTTACACCGCATGTGATAATATACTACTAGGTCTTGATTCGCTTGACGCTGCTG,1380
CTATGCTCTCTGTATCACGGGTCTACTAGCAGGTTCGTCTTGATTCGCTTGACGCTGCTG,1140
GAAGAAATTTCCCCTGACGTGTTGGTGTATAAGTAGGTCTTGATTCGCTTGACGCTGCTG,547
CCTAACTACTATAAGGACGTGTCATAGCTTCGTACAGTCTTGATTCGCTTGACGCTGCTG,516
GAAATCCACCTTCATCTCAGCTGTCCACATTAATAGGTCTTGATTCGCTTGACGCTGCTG,504
CTATACTACTGGTCAATCGTGATATTTATGAACTTCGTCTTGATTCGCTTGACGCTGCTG,571
CTATCTGAGCCATCTCTCCTGATATATAAGACATTCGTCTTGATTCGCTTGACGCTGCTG,503

# Sample 3
# Target: CCNE2, cyclin fold, Cln2 fusion (human)
# Method: yeast growth competition, sequencing
# Matrix: yeast
# Notes: weak parent motif
# Reference: not given
# Reading: higher = stronger binding
# Starting sequence: CDC6 docking peptide (human); TLKGRRLVFDNQL
Change,normalised enrichment score
Q12W,1.04
L2N,0.0746
T1V,0.871
V8R,1.28
K3Y,0.89
R5W,-0.0342
K3G,-0.0968
N11R,0.774
R6Y,0.309
F9E,0.546

# Single results of other studies
Substance,target,assay,system,setting,scale,measurement,result
"PhoQ, residues 284 288 289 292 302 303 SCKMEA","PhoP, residues 12 14 15 18 19 LWHVM (Escherichia coli, UniProt P23836)","Sort-seq, measured: YFP reporter",E. coli,"PhoQ-PhoP variant library, added: 10 µM Mg2+","reference: high Mg2+ state, higher = stronger signaling",fold induction,2.3
